Measurements of several laboratories.
Parts stem from different laboratories: compare values within a part only. Values joined by “and” are separate records of one study, mostly repeats; a detail may differ. Numbers after ± are the reported error.
Sequence of UniProt Q81Y92 (whole entry, looked up): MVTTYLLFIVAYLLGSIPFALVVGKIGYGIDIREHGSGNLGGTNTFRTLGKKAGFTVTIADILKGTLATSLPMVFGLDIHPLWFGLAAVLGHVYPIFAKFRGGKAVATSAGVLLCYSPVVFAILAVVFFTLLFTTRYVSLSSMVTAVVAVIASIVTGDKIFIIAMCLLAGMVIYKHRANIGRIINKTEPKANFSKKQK

Set 1 — cell line: HEK-293T; read-out: pseudovirus infection; organism: VSV pseudotyped with SARS-CoV-2 spike; tested at: 10 µM; time: 16 h; reference: vehicle-treated
| Structure (SMILES) | GFP-positive cells |
| --- | --- |
| CCc1cc2c(cc1N1CCC(N3CCOCC3)CC1)C(C)(C)c1[nH]c3cc(C#N)ccc3c1C2=O | 86.9% |
| CC(=O)OCC(=O)[C@@]1(OC(C)=O)[C@@H](C)C[C@H]2[C@@H]3C[C@H](F)C4=CC(=O)C=C[C@]4(C)[C@@]3(F)[C@@H](O)C[C@@]21C | 89.5% |
| COC(=O)N[C@H](C(=O)N1CCC[C@H]1c1nc(-c2ccc(-c3ccc(-c4c[nH]c([C@@H]5CCCN5C(=O)[C@@H](NC(=O)OC)C(C)C)n4)cc3)cc2)c[nH]1)C(C)C | 85.7% |

Set 2 — mode: inhibitor; tested at: 20 µM
Target: Replicase polyprotein 1ab, nsp13 helicase (rep, Severe acute respiratory syndrome coronavirus 2, UniProt P0DTD1)
| SMILES | inhibition [%] |
| --- | --- |
| CNCc1ccc(-c2[nH]c3cc(F)cc4c3c2CCNC4=O)cc1 | 12.8 |
| Cc1ccc(-c2c(-c3nn(C)c4ncnc(N5CC[C@H](N6CCCCC6)C5)c34)cnn2C)cc1 | 3.39 |
| COc1ccccc1OC(=O)C(C)c1ccc(CC(C)C)cc1 (stereo not shown) | 0.78 |
| O=C(NCc1cccc(O)c1)Nc1nc(-c2ccncc2)cs1 | -5.58 |
| C[C@]12C=CC(=O)C=C1CC[C@@H]1[C@@H]2CC[C@]2(C)OC(=O)CC[C@@H]12 | -2.96 |
| O=C1C(O)=C([C@H]2CC[C@H](c3ccc(Cl)cc3)CC2)C(=O)c2ccccc21 | 8.23 |
| CCCCCCCCCC(=O)OCCN1CCN(CCCN2c3ccccc3Sc3ccc(C(F)(F)F)cc32)CC1 | -3.15 |
| CO/N=C(\C(=O)N[C@@H]1C(=O)N2C(C(=O)[O-])=C(C[n+]3ccn4ncccc43)CS[C@H]12)c1nsc(N)n1 | -0.77 |
| O=P1(NCCCl)OCCCN1CCCl (stereo not shown) | -0.24 |
| CCCC[C@H](NC(=O)[C@@H]1[C@@H]2[C@H](CN1C(=O)[C@@H](NC(=O)NC1(CS(=O)(=O)C(C)(C)C)CCCCC1)C(C)(C)C)C2(C)C)C(=O)C(=O)NC1CC1 | -0.22 |
| CN(C)CC/C=C1\c2ccccc2CSc2ccccc21 | 4.37 |
| Oc1cc2c(cc1O)CN(C(=S)NCCc1ccc(Cl)cc1)CCC2 | 0.92 |
| CCOC(=O)Nc1nc2ccccc2[nH]1 | 6.78 |
| O=C(O)C1=CCNCC1 | 2.23 |
| C[C@H]1C[C@@H]2[C@H]([C@@H](O)C[C@@]3(C)[C@H]2CC[C@]3(O)C(=O)COC(=O)CCC(=O)O)[C@@]2(C)C=CC(=O)C=C12 | 1.78 |
| COc1ccc(Cl)c(Nc2nc3ccccc3nc2NS(=O)(=O)c2cccc(NC(=O)C(C)(C)N)c2)c1 | 5.26 |
| COc1ccc2c3c1O[C@H]1C[C@@H](O)C=C[C@@]31CCN(C)C2 | 1.82 |
| CCC(C)C(CC)C(N)=O (stereo not shown) | -1.22 |
| CSCC[C@H](NC(=O)[C@H](CC(C)C)NC(=O)[C@@H](Cc1c[nH]c2ccccc12)NC(=O)[C@H](Cc1ccccc1)N(C)C(=O)[C@@H](Cc1c[nH]c2ccccc12)NC(=O)[C@@H](N)CCCN=C(N)N)C(N)=O | 1.19 |
| C[C@H]1[C@H](C)CC[C@]2(C(=O)O)CC[C@]3(C)C(=CC[C@@H]4[C@@]5(C)CC[C@H](O)C(C)(C)[C@@H]5CC[C@]43C)[C@H]12 | 2.56 |
| O=C1c2ccccc2C(=O)c2ccccc21 | 4.7 |
| CC(=O)OCC(=O)[C@@]1(O)CC[C@H]2[C@@H]3CCC4=CC(=O)CC[C@]4(C)[C@H]3C(=O)C[C@@]21C | -4.22 |
| Oc1ccc(Cl)c2c1CCC2 | 5.54 |

Set 3 — read-out: enzyme activity; mode: inhibitor; tested at: 20 µM; setting: primary screen
Target: Replicase polyprotein 1ab, main protease (rep, Severe acute respiratory syndrome coronavirus 2, UniProt P0DTD1)
| Structure (SMILES) | inhibition [%] |
| --- | --- |
| CC1(C)CN2C(CS/C(=N/C3CCCCC3)NC3CCCCC3)=CSC2=N1 | 29.5 |
| Oc1cccc(-c2c3nc(c(-c4cccc(O)c4)c4ccc([nH]4)c(-c4cccc(O)c4)c4nc(c(-c5cccc(O)c5)c5ccc2[nH]5)CC4)C=C3)c1 | 82.4 |
| Oc1cc2c(cc1O)C(Cc1cccc3ccccc13)NCC2 (stereo not shown) | 39.7 |

Mixed results
Polyprotein P1234 nsP2 protease domain: Polyprotein P1234, nsP2 protease domain (Chikungunya virus, UniProt Q5XXP4)
Sequence of UniProt Q5XXP4 (whole entry, looked up): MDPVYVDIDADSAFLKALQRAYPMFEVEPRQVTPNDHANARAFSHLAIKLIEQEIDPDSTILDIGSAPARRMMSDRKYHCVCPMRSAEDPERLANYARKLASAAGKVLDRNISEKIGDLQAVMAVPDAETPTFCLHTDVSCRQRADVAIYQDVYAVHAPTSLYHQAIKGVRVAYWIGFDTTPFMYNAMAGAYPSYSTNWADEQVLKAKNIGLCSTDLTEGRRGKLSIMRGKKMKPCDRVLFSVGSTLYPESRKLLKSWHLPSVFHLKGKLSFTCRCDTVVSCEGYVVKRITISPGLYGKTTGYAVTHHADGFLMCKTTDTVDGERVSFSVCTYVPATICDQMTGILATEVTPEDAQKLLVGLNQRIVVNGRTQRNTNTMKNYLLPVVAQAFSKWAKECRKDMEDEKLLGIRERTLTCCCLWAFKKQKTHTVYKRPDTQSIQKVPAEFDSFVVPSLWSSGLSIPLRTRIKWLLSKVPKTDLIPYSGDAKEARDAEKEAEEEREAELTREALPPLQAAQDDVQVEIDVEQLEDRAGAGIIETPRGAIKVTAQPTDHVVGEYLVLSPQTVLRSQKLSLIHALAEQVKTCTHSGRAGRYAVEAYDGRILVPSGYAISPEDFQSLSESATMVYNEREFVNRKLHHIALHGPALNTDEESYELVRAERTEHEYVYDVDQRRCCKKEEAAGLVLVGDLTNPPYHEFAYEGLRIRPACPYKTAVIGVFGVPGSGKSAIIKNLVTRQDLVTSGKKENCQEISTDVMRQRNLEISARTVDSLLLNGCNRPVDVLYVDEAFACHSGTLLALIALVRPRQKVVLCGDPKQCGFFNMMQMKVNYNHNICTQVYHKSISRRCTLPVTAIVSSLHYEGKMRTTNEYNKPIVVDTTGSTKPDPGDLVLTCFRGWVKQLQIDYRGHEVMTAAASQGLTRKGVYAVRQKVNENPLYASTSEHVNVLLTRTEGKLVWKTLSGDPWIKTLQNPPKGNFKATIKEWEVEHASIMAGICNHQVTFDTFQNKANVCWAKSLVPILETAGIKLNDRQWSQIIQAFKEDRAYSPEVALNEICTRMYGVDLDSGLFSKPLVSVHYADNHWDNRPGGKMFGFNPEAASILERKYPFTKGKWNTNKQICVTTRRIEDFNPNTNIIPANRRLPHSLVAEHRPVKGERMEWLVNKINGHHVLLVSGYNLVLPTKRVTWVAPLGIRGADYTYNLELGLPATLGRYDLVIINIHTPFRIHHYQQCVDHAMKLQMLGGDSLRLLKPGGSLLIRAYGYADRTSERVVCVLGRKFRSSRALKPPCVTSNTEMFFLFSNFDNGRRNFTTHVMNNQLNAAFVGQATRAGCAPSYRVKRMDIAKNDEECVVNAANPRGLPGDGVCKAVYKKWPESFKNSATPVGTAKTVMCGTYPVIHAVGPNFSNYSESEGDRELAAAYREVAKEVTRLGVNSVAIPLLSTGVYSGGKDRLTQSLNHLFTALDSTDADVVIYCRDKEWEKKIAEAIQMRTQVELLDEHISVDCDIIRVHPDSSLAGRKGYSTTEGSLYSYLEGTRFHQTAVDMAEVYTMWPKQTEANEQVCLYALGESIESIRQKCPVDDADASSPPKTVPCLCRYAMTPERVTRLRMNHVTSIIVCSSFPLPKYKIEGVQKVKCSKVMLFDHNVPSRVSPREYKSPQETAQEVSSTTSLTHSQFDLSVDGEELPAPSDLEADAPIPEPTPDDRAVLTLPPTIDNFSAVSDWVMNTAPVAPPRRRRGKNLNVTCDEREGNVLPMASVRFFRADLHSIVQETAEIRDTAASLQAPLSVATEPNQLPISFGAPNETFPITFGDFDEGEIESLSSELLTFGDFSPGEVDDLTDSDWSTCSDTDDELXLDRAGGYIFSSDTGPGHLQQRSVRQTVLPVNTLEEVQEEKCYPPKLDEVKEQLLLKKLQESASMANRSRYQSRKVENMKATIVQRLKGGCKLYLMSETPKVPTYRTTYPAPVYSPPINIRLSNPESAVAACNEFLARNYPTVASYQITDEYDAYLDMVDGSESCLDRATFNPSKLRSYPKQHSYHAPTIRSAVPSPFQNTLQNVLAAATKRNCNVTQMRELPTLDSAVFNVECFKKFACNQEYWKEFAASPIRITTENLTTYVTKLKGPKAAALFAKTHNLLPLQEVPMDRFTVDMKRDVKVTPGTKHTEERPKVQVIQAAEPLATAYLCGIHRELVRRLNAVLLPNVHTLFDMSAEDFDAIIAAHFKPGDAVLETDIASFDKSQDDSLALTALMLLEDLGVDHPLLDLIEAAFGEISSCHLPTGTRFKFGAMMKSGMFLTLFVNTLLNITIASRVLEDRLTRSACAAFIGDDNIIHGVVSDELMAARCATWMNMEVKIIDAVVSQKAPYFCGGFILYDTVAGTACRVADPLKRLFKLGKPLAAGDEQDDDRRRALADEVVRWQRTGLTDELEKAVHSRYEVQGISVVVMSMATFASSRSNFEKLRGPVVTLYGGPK
| SMILES | tested on | test | test system | conditions | how to read | measurement | result |
| --- | --- | --- | --- | --- | --- | --- | --- |
| CCCCCCCCCCCCCCCC(=O)NS(=O)(=O)Oc1ccc(OC)cc1 | Glycerol-3-phosphate acyltransferase 3 (plsY3, Bacillus anthracis, UniProt Q81Y92) | inhibitor |  |  |  | IC50 | 35 µM |
| CN(N=O)c1ccc(O)c(O)c1 | Gag-Pol polyprotein, integrase (gag-pol, Human immunodeficiency virus type 1 group M subtype B, UniProt P04585) | enzyme activity, inhibitor |  |  |  | IC50 | > 25 µM |
| CN1CCCC(n2nc(Cc3ccc(Cl)cc3)c3ccccc3c2=O)CC1 (stereo not shown) | Huh-7 | pseudovirus entry | MERS-CoV spike pseudovirus |  |  | EC50 | 2.59 ± 0.88 µM |
| O=C(O)c1ccc(-c2cccc(/C=N/NC(=O)c3cc(O)c(O)c(O)c3)c2)cc1 | Gag-Pol polyprotein, reverse transcriptase A502G/D256G (gag-pol, Human immunodeficiency virus type 1 group M subtype B, UniProt P04585, A1089G/D843G) | RNase H activity, inhibitor | HIV-1 |  |  | IC50 | 4 ± 1.3 µM |
| Nc1ncnc2c([C@@H]3N[C@H](CO)[C@@H](O)[C@H]3O)c[nH]c12 | Yellow fever virus | viral replication | Vero 76, 17D | 29.6 µM |  | inhibition | 67% |
| CC(C)(C)[C@H](NC(=O)C(F)(F)F)C(=O)N1C[C@H]2[C@@H]([C@H]1C(=O)N[C@H](C#N)C[C@@H]1CCNC1=O)C2(C)C |  |  | human, fasted | oral, 150 mg single dose, 28 days, no ritonavir |  | participants discontinued due to adverse events | 0% |
| Cc1ccc2c(NC(C)c3ccccc3)nc(N3CCNCC3)nc2c1 (stereo not shown) | SARS-CoV-2 | cytopathic effect | USA_WA1/2020 | retest 8-point |  | efficacy | 89.3% |
| CCc1c(C(=O)C(N)=O)c2c(OCC(=O)O)cccc2n1Cc1ccccc1 | Daboia russelii venom phospholipase A2 | enzyme activity, inhibitor | KL population | 0.001 µM, added: NOB substrate | reference: venom alone | remaining activity | 90.8% and 88.2% and 90.7% |
| O=c1ccn([C@@H]2O[C@](F)(CO)[C@@H](O)[C@H]2O)c(=O)[nH]1 | Mammarenavirus lujoense | viral replication | HeLa |  |  | EC50 | 0.29 µM |
| CCN(CC)CCCNC(=O)c1ccc(-c2nc(CN3CCc4ccccc43)c(C)o2)cc1 | SARS-CoV-2 | cytopathic effect | USA_WA1/2020 | round 2, 5-point |  | maximum response | 116% |
| CNC(=O)[C@@H](NC(=O)[C@H](CC(C)C)[C@H](O)C(=O)NO)C(C)(C)C | Daboia russelii venom proteases | proteolytic activity, inhibitor |  | venom from MH, added: azocasein substrate |  | IC50 | 0.15 µM |
| O=C1NC2CCCCN2C12CCN(CCCN1c3ccccc3CCc3ccc(Cl)cc31)CC2 (stereo not shown) | SARS-CoV-2 | viral replication, GFP plate reader screen | BetaCov/Belgium/GHB-03021/2020 | cell-based |  | EC50 | 7.41 µM |
| C=CS(=O)(=O)CCC(=O)Nc1ccc(N2CCOCC2)nc1C | Polyprotein P1234 nsP2 protease domain | protease activity, inhibitor, FRET |  | 90 min, 30 min preincubation |  | IC50 | 23 ± 2 µM |
| CC[C@H](NC(C)=O)C(=O)N[C@@H](CCCN)C(=O)N[C@@H](CC(C)C)C(=O)N[C@@H](CCC(N)=O)C(=O)Nc1ccc2c(C)cc(=O)oc2c1 | Replicase polyprotein 1ab, main protease (rep, Severe acute respiratory syndrome coronavirus 2, UniProt P0DTD1) | substrate |  |  |  | peak substrate concentration | 3.48 mmol/L |
| CS(=O)(=O)C=CCNC(=O)c1ccc2c(c1)NC(=O)CC2 | Polyprotein P1234 nsP2 protease domain | protease activity, inhibitor, FRET |  | 90 min, 30 min preincubation |  | IC50 | 1 µM and < 1.5 µM |
| COc1ccc2nc3c(c(N)c2c1)CCCC3 | SARS-CoV-2 | viral replication, high-content imaging screen | BetaCov/Belgium/GHB-03021/2020 | cell-based |  | EC50 | > 25.1 µM |
| CNC(=O)[C@]1(O)C(=O)c2c([nH]c3ccc(Cl)cc23)-c2c(OC)c3cc(Cl)ccc3n21 | SARS-CoV-2 | viral replication, mNeonGreen reporter virus |  | 50 µM |  | inhibition | 4.07% |

Repeated from above (set 2):
| SMILES | inhibition [%] |
| --- | --- |
| CN(C)CC/C=C1\c2ccccc2CSc2ccccc21 | 4.37 |
| Oc1cc2c(cc1O)CN(C(=S)NCCc1ccc(Cl)cc1)CCC2 | 0.92 |
| CCOC(=O)Nc1nc2ccccc2[nH]1 | 6.78 |
| O=C(O)C1=CCNCC1 | 2.23 |
| C[C@H]1C[C@@H]2[C@H]([C@@H](O)C[C@@]3(C)[C@H]2CC[C@]3(O)C(=O)COC(=O)CCC(=O)O)[C@@]2(C)C=CC(=O)C=C12 | 1.78 |
| COc1ccc(Cl)c(Nc2nc3ccccc3nc2NS(=O)(=O)c2cccc(NC(=O)C(C)(C)N)c2)c1 | 5.26 |
